Measured values pooled from the literature.
Protocols differ between the studies behind these lines. Several values in a cell are separate wells, animals, samples, runs or records.

| Substance | target or system | assay | system | setting | how to read | quantity | result |
| --- | --- | --- | --- | --- | --- | --- | --- |
| Polymyxin B | – | LAL test | human plasma | 60 min, 37 °C, 50% reduction, with: Escherichia coli LPS 0.5 ng/mL | – | endotoxin neutralizing concentration | < 100 ng/mL and 63 ng/mL |
| C#CCN(C)[C@H](C)Cc1ccccc1 | – | immunostaining | APP/PS1 mice, GFAP-positive astrocytes, dentate gyrus | oral, 10 mg/kg, 3 days | – | GABA level | decreased |
| Cc1ccc([C@H]2C[C@@H]3CC[C@H]([C@H]2c2cc(-c4ccc(Cl)cc4)no2)N3C)cc1 | – | nicotine-induced hypothermia, antagonist | mouse | with: nicotine 2.5 mg/kg sc | – | ED50 | > 20 mg/kg |
| CNC(C)Cc1ccc2c(c1)OCO2 (racemic) | – | Drug Effects Questionnaire, measured: Feel Drug | human | oral, 0.75 mg/kg, mean over session, unit not given | baseline: pre-dose baseline | subjective drug effect rating | 24.4 |
| C#Cc1ccc2c(c1)C(c1ccccn1)=NCc1c(-c3cnco3)ncn1-2 | – | – | ICR mouse, lactic acid-depressed nesting | dose not given, 60 min nesting period | baseline: vehicle | zones cleared | increased |
| Cc1cc([C@H]2C[C@@H]3CC[C@H]([C@H]2c2cc(-c4ccccc4)no2)N3C)ccc1Cl | – | nicotine-induced hypothermia, antagonist | mouse | with: nicotine 2.5 mg/kg sc | – | ED50 | > 20 mg/kg |
| EDDP perchlorate | – | elevated plus maze | Sprague-Dawley rat | subcutaneous, 10 mg/kg, 30 min, 300 s test | – | time in open arms | 80 s |
| CCCC(C(=O)c1ccc2c(c1)OCO2)N1CCCC1 (stereo not shown) | – | locomotor activity increase | ICR mice | intraperitoneal, 60 min | baseline: saline | effective dose | 1 to 3 mg/kg |
| NC(=O)C[S+]([O-])C(c1ccccc1)c1ccccc1 (stereo not shown) | – | – | C57BL/6J mouse | oral, 128 mg/kg, 5.5 h cumulative | baseline: vehicle-treated mice | locomotor activity | ~9 fold |
| C#Cc1ccc2c(c1)C(c1ccccc1F)=NCc1c(-c3cnco3)ncn1-2 | – | increase in zones cleared | mouse, lactic acid-depressed nesting | – | baseline: vehicle | effective dose | 10 mg/kg |
| CCCCCc1cc(O)c2c(c1)OC(C)(C)[C@@H]1CCC(C)=C[C@@H]21 | – | HPLC-MS/MS, measured: A-Taur | female CD1 mouse, brain | dose not given, 2 h | – | number of modulated brain regions | 5 |
| COc1ccc(-c2cc([C@H]3[C@@H](c4ccc(Cl)cc4)C[C@@H]4CC[C@H]3N4C)on2)cc1 | – | nicotine-induced hypothermia, antagonist | mouse | with: nicotine 2.5 mg/kg sc | – | ED50 | > 20 mg/kg |
| CCCCCc1cc(O)c2c(c1)OC(C)(C)[C@@H]1CCC(C)=C[C@@H]21 | – | – | male ND4 Swiss-Webster mice | intraperitoneal, 10 and 25 mg/kg | – | duration of locomotor depression | 120 to 210 min |
| CN[C@@](C)(C[18F])C(=O)O | DU-145 tumour model | – | host not given, lung | 30 min, tumour-bearing | – | tracer uptake | 2.3 %ID/g |
| COC(=O)[C@@H]1[C@H]2CC[C@@H](C[C@H]1c1ccc(Cl)c(C)c1)N2C | – | nicotine-induced antinociception, antagonist, hot-plate test | mouse | with: nicotine 2.5 mg/kg sc | – | ED50 | > 20 mg/kg |
| COc1ccc2c(c1)[C@]13CCCC[C@@H]1[C@H](C2)N(C)CC3 | – | – | rat, striatum, hippocampus, cortex | intraperitoneal, 30 mg/kg, three doses, 1 week, with: MDMA 20 mg/kg oral | baseline: MDMA with saline | MDMA-induced 5-HT depletion | no effect |

Excerpt of the above:
| Substance | target or system | assay | system | setting | how to read | quantity | result |
| --- | --- | --- | --- | --- | --- | --- | --- |
| COc1ccc(-c2cc([C@H]3[C@@H](c4ccc(Cl)cc4)C[C@@H]4CC[C@H]3N4C)on2)cc1 | – | nicotine-induced hypothermia, antagonist | mouse | with: nicotine 2.5 mg/kg sc | – | ED50 | > 20 mg/kg |
| CCCCCc1cc(O)c2c(c1)OC(C)(C)[C@@H]1CCC(C)=C[C@@H]21 | – | – | male ND4 Swiss-Webster mice | intraperitoneal, 10 and 25 mg/kg | – | duration of locomotor depression | 120 to 210 min |
